Measured values of several laboratories.
Lines come from different studies, so protocols differ. Numbers after ± are the reported error.

| Compound | cell line | assay | conditions | scale | measurement | result |
| --- | --- | --- | --- | --- | --- | --- |
| O=C1[O][Pt]2([OH])([OH])([NH]C3CCCCC3[NH]2)[O]C1=O (centres unmarked) | HUVEC | tube formation | IC10, 16 h |  | tube length disruption | 16% |
| CC1CCC2C(C)C(OC(=O)CCC(=O)N(CCCc3cn(-c4ccc(C#N)cc4)nn3)CCNc3ccnc4cc(Cl)ccc34)OC3OC4(C)CCC1C32OO4 (centres unmarked) | MOLT-4 | cell growth or viability, resazurin | 10 µM, 48 h |  | inhibition | 35.7% |
| C=CC12COC(=O)C(=C)C1C(O)C1C(=C)C(=O)OC1C2 (centres unmarked) | JIMT-1 | scratch | 2 µM, 72 h |  | wound closure | 35% |
| CC[C@H](C)[C@H](NC(C)=O)C(=O)N[C@@H](CC(N)=O)C(=O)N[C@@H](Cc1c[nH]c2ccccc12)C(=O)N[C@@H](CCC(=O)O)C(=O)NCC(=O)N[C@H](C(=O)N[C@@H](C)C(=O)N[C@@H](Cc1c[nH]cn1)C(=O)N[C@@H](CCSC)C(=O)N[C@@H](C)C(=O)N[C@@H](CCCCN)C(=O)N[C@@H](CCCCN)C(=O)N[C@@H](CC(C)C)C(=O)N[C@@H](CC(C)C)C(N)=O)[C@@H](C)CC | human erythrocytes |  | added: Zn(II) 300 µM | baseline: without metal | haemolytic potency ratio | 3 fold |
| Cc1cc(O)cc(-c2nc(Nc3cc(C(F)(F)F)cc(C(F)(F)F)c3)ncc2-c2ccnc(Cl)c2)c1 | HT-29 | DNA flow cytometry | 10 µM, 48 h |  | cells in G0/G1 phase | 59.7 ± 0.73% |
| CC(=O)N[C@@H](CSSCCC(=O)NCCCC[C@H](NC(=O)CC[C@@H]1NC(=O)[C@H](Cc2ccc(O)cc2)NC(=O)[C@H](Cc2ccc3ccccc3c2)NC(=O)[C@@H]2CCCCN2C(=O)[C@@H]([C@H](C)OP(=O)(O)O)NC(=O)CN(C)C(=O)[C@@H](C)NC1=O)C(N)=O)C(=O)N[C@@H](CCCNC(=N)N)C(=O)N[C@@H](CCCNC(=N)N)C(=O)N[C@@H](CCCNC(=N)N)C(=O)N[C@@H](CCCNC(=N)N)C(=O)N[C@@H](CCCNC(=N)N)C(=O)N[C@@H](CCCNC(=N)N)C(=O)N[C@@H](CCCNC(=N)N)C(=O)N[C@@H](CCCNC(=N)N)C(N)=O | BT-474 | refers to: PML and SMRT | 0.1 to 1 µM |  | protein level | increased |
| CC(C)C[C@@H](NC(=O)CCNc1ccc([N+](=O)[O-])c2nonc12)C(=O)N[C@H](CC(C)C)C(=O)N[C@H](CC(C)C)C(=O)N[C@H](CC(C)C)C(=O)N[C@H](Cc1ccc(OP(=O)(O)O)cc1)C(=O)O | OVSAHO | MTT | 200 µM, 24 h |  | viability | > 60% |
| CC[C@H](C)[C@H](NC(=O)[C@H](Cc1ccccc1)NC(=O)[C@H](CCC(=O)O)NC(=O)[C@H](CCCCN)NC(=O)[C@H](C)NC(=O)[C@H](C)NC(=O)[C@H](CC(N)=O)NC(=O)CNC(=O)[C@H](CCC(=O)O)NC(=O)[C@H](CC(C)C)NC(=O)[C@H](Cc1ccc(O)cc1)NC(=O)[C@H](CO)NC(=O)[C@H](CO)NC(=O)[C@@H](NC(=O)[C@H](CC(=O)O)NC(=O)[C@H](CO)NC(=O)[C@@H](NC(=O)[C@H](Cc1ccccc1)NC(=O)[C@H](CCC(N)=O)NC(=O)CNC(=O)[C@H](CCC(=O)O)NC(=O)[C@H](C)NC(=O)[C@@H](N)Cc1c[nH]cn1)[C@@H](C)O)C(C)C)C(=O)N[C@@H](C)C(=O)N[C@@H](Cc1c[nH]c2ccccc12)C(=O)N[C@@H](CC(C)C)C(=O)N[C@H](C(=O)N[C@@H](CCCCN)C(=O)NCC(=O)N[C@@H](CCCNC(=N)N)C(N)=O)C(C)C | RIN-m5F rat β-cells | insulin secretion |  | baseline: EC50 of analogue over EC50 of GLP-1(7-36)-amide | relative potency | 0.02 |
| Cc1ccc(NC(=O)C2C(=O)C(c3ccccc3)c3ccc4c(c32)C(=O)c2ccccc2C4=O)cc1 (centres unmarked) | MCF7 | cytotoxicity |  |  | CC50 | 82.34 ± 0.16 µg/mL |
| CC12OOC(C)(OO1)C2CCC(=O)NCCNc1ccnc2cc(Cl)ccc12 (centres unmarked) | RPMI-8226 | cell growth or viability, resazurin | 10 µM, 48 h |  | inhibition | 24.5% |
| CC(C)[C@@H]1NC(=O)[C@H](CCCCN)NC(=O)[C@@H](Cc2c[nH]c3ccccc23)NC(=O)[C@H](Cc2ccc(O)cc2)NC(=O)[C@@H](NC(=O)[C@H](N)Cc2ccc3ccccc3c2)CSSC[C@@H](C(=O)N[C@@H](Cc2ccc3ccccc3c2)C(N)=O)NC1=O | NCI-H1299-BRS-3 | clonogenic assay in agarose | 10 µM |  | colony number | 30 ± 3 |
| CNC(=O)c1cc(Oc2ccc(NC(=O)c3ccc(-c4cccc(OC(=O)CCC(=O)OC5OC6OC7(C)CCC8C(C)CCC(C5C)C68OO7)c4)cn3)cc2)ccn1 (centres unmarked) | Hep3B and LO2 | cell viability, MTT | 72 h | baseline: IC50 LO2 over IC50 Hep3B | selectivity ratio | 7.5 |
| CCOP(=O)(OCC)C(Cc1c(F)c(F)c(Sc2ccc(OC)cc2)c(F)c1F)Nc1ccccc1 (centres unmarked) | T98G |  | 20 µM | baseline: untreated | clonogenic survival | 85% |
| CCCCCCCCCCCCCC(=O)NCC(=O)N[C@@H](CCCNC(=N)N)C(=O)N[C@@H](Cc1c[nH]c2ccccc12)C(=O)N[C@@H](CCCCN)C(=O)N[C@H](C(=O)N[C@@H](Cc1ccccc1)C(=O)N[C@@H](CCCCN)C(=O)N[C@@H](CCCCN)C(=O)N[C@H](C(=O)N[C@@H](CCC(=O)O)C(=O)N[C@@H](CCCCN)C(=O)N[C@H](C(=O)NCC(=O)N[C@@H](CCC(N)=O)C(=O)N[C@@H](CC(N)=O)C(=O)N[C@H](C(=O)N[C@@H](CCCNC(=N)N)C(=O)N[C@@H](CC(=O)O)C(=O)NCC(=O)N[C@H](C(=O)N[C@H](C(=O)N[C@@H](CCCCN)C(=O)N[C@@H](C)C(=O)NCC(=O)N1CCC[C@H]1C(=O)N[C@@H](C)C(=O)N[C@H](C(=O)N[C@@H](C)C(=O)N[C@H](C(=O)N[C@H](C(=O)NCC(=O)N[C@@H](CCC(N)=O)C(=O)N[C@@H](C)C(=O)N[C@@H](C)C(=O)N[C@H](C(=O)N[C@H](C(N)=O)[C@@H](C)CC)[C@@H](C)O)C(C)C)C(C)C)C(C)C)C(C)C)[C@@H](C)CC)[C@@H](C)CC)C(C)C)[C@@H](C)CC)[C@@H](C)CC | K562/MDR | Western blot, refers to: procaspase 9 | 2 µM, 16 h |  | procaspase activation | ~55% |
| CC[C@H](C)[C@H](NC(C)=O)C(=O)N[C@@H](CC(N)=O)C(=O)N[C@@H](Cc1c[nH]c2ccccc12)C(=O)N[C@@H](Cc1c[nH]cn1)C(=O)N[C@@H](C)C(=O)N[C@H](C(=O)N[C@@H](C)C(=O)N[C@@H](Cc1c[nH]cn1)C(=O)N[C@@H](CCSC)C(=O)N[C@@H](C)C(=O)N[C@@H](CCCCN)C(=O)N[C@@H](CCCCN)C(=O)N[C@@H](CC(C)C)C(=O)N[C@@H](CC(C)C)C(N)=O)[C@@H](C)CC | human erythrocytes |  | added: Ni(II) 300 µM | baseline: without metal | haemolytic potency ratio | 10 fold |
| Cc1cccc(O)c1C(=O)OCC1(O)C(Nc2ccc3c(c2)Cc2ccccc2-3)C(N)C(NC(=O)N(C)C)(C(C)O)C1(C)O (centres unmarked) | MOLT-4 | cell growth or viability, SRB |  |  | GI50 | 780 nM |

| Compound | cell line | assay | conditions | scale | measurement | result |
| --- | --- | --- | --- | --- | --- | --- |
| CC1CCC2C(C)C(OC(=O)CCC(=O)N(CCCc3cn(-c4ccc(CN5CCOCC5)cc4)nn3)CCNc3ccnc4cc(Cl)ccc34)OC3OC4(C)CCC1C32OO4 (centres unmarked) | RPMI-8226 | cell growth or viability, resazurin | 10 µM, 48 h |  | inhibition | 27.2% |
| Cc1ccc2ccc3ccc(C)nc3c2n1.O.[99Tc+].[C-]#[O+].[C-]#[O+].[C-]#[O+] | HeLa | annexin V/PI | 5 µM, 24 h |  | early apoptotic cells | 19% |
| CC12OOC(C)(OO1)C2CCC(=O)OCCNc1ccnc2cc(Cl)ccc12 (centres unmarked) | CCRF-CEM | cell growth or viability, resazurin | 10 µM, 48 h |  | inhibition | 36.1% |
| C[C@H]1C(OCCCCCCCC[P+](c2ccccc2)(c2ccccc2)c2ccccc2)O[C@@H]2O[C@@]3(C)CCC4[C@H](C)CCC1[C@]42OO3 (some centres unmarked) | J82 | EdU | concentration not given, dose-dependent | baseline: control | cell proliferation | decreased |
| CCCN1CCNC1=[S+][Ag-3]([O][N+](=O)[O-])([P+](c1ccccc1)(c1ccccc1)c1ccccc1)[P+](c1ccccc1)(c1ccccc1)c1ccccc1 | MG-63 osteosarcoma | MTT | 6.25 µM |  | cell killing | ≤ 40% |
| O=C(O)CCC(NP(=O)(O)OCCC[C@@H](NC(=O)CCC(NC(=O)c1ccc([18F])cc1)C(=O)O)C(=O)O)C(=O)O (some centres unmarked) | CWR22Rv1 |  | 2 h |  | internalized fraction | 94.2% |
| CC/C=C\C/C=C\C/C=C\C/C=C\C/C=C\C/C=C\CCC(=O)Nc1ccn(C2OC(CO)C(O)C2(F)F)c(=O)n1 (centres unmarked) | RPMI-8226 | NCI60 screen |  |  | CC50 | > 100000 nM |
| C#CCCCN(CCNc1ccnc2cc(Cl)ccc12)C(=O)CCC(=O)O[C@@H]1O[C@@H]2O[C@@]3(C)CC[C@H]4[C@H](C)CCC([C@H]1C)[C@@]24OO3 (some centres unmarked) | CCRF-CEM | cell growth or viability, resazurin | 10 µM, 48 h |  | inhibition | 43.5% |
| CNC(=O)c1cc(Oc2ccc(NC(=O)c3ccc(-c4ccccc4OC(=O)CCC(=O)OC4OC5OC6(C)CCC7C(C)CCC(C4C)C57OO6)cn3)cc2)ccn1 (centres unmarked) | Huh-7 and LO2 | cell viability, MTT | 72 h | baseline: IC50 LO2 over IC50 Huh-7 | selectivity ratio | > 17.1 |
| CC(C)CC(O)(CC(C)C)c1cn(C(=O)N2CCCC2)nn1 | mouse T-cells | SILAC proteomics, refers to: PTPN18 | 1 nM, 6 h, unit not given | baseline: DMSO | protein level | 0.97 ± 0.09 |
| CNC(=O)c1cc(Oc2ccc(NC(=O)c3ccc(-c4ccc(COC(=O)CCC(=O)OC5OC6OC7(C)CCC8C(C)CCC(C5C)C68OO7)cc4)cn3)cc2)ccn1 (centres unmarked) | Hep3B and LO2 | cell viability, MTT | 72 h | baseline: IC50 LO2 over IC50 Hep3B | selectivity ratio | > 10.1 |
| CN1CCc2[nH]c3ccc(F)cc3c2CC1 | rat embryonic cortical neurons | Sholl analysis | dose not given, DIV6 | baseline: vehicle | dendritic arbor complexity | not toxic |
| CC12CCC3(CCC(=O)NCCCNc4ccnc5cc(Cl)ccc45)C(C)(OOC3(C)O1)O2 | RPMI-8226 | cell growth or viability, resazurin | 10 µM, 48 h |  | inhibition | 22.7% |
| C[C@H]1O[C@@H]2C3=C(O[C@]2(C)[C@@]1(O)C=O)C(=O)c1c(O)cccc1C3=O | A549 and HFF | MTT |  | baseline: CC50 HFF over EC50 A549 | selectivity index | 2.16 |
| CCCC[C@H](O)C[C@@H](C)C[C@H](NC(=O)[C@@H]1C[C@H](C)CN1C(=O)/C=C/[C@@H](C)CC)C(=O)N[C@H](C(=O)NC(C)(C)C(=O)N[C@@H](CC(C)C)C(=O)N[C@@H](CC(C)C)C(=O)NC(C)(C)C(=O)NC(C)(C)C(=O)NCCC(=O)N[C@@H](C)CN(C)C)[C@H](O)C(C)C | MDA-MB-453 | cell growth or viability, SRB | 48 h |  | GI50 | 3.7 nM |
| CC(=O)Oc1ccc(/C=C/C(=O)Nc2nc(=O)n([C@@H]3O[C@H](C)[C@@H](OC(C)=O)[C@H]3OC(C)=O)cc2F)c(OC(C)=O)c1 | BXPC-3 | cell viability, MTT |  | baseline: NHDF fibroblasts over BXPC-3 | selectivity index | 2.58 |
